# Experimental data collected from several papers.
# Protocols differ between the studies behind these lines. “And” joins repeats or separate records; there may be more than shown. ± gives the spread as reported.
SMILES,test,test system,conditions,measurement,result
Cc1ccccc1-c1ccc(-c2nc(-c3ccc(CN(C)CCCC(=O)O)c([18F])c3)no2)cc1C(F)(F)F,,"rat, blood",5 min,tracer uptake,0.2 %ID/g
CN1Cc2cc(Cl)ccc2-n2c(nnc2C2CCN(c3cccc([18F])n3)CC2)C1,,"C57BL/6 mouse male, liver","intravenous, 3.7 MBq, 60 min",tissue uptake,10.8 ± 1.31 %ID/g
CC(C)C[C@H](NC(=O)[C@H](C)NC(=O)[C@H](CCCCN)NC(=O)CCNC(=S)Nc1ccc2c(c1)C(=O)OC21c2ccc(O)cc2Oc2cc(O)ccc21)C(=O)N[C@@]1(C)CCCC=CCCC[C@@](C)(C(=O)N[C@H](C(=O)NCC(=O)N[C@@H](CC(=O)O)C(=O)NCC(=O)N[C@H](C(=O)N[C@@H](CCC(N)=O)C(=O)N[C@@H](CCCNC(=N)N)C(=O)N[C@@H](CC(N)=O)C(=O)N[C@@H](Cc2c[nH]cn2)C(=O)N[C@@H](CCC(=O)O)C(=O)N[C@H](C(=O)N[C@@H](C)C(=O)N[C@@H](Cc2ccccc2)C(N)=O)[C@@H](C)O)C(C)C)C(C)C)NC(=O)[C@H](CCCNC(=N)N)NC(=O)[C@H](CC(C)C)NC(=O)[C@H]([C@@H](C)O)NC1=O,circular dichroism,potassium phosphate buffer,"20 µM, pH 7.5",α-helicity,100%
CC[C@H](C)[C@H](NC(=O)[C@H](CCCCN)NC(=O)CNC(=O)[C@H](CC(C)C)NC(=O)[C@H](Cc1ccccc1)NC(=O)[C@H](CCCCN)NC(=O)[C@H](CO)NC(=O)[C@H](Cc1ccccc1)NC(=O)[C@H](Cc1c[nH]c2ccccc12)NC(=O)[C@H](CCC(N)=O)NC(=O)[C@@H](NC(=O)[C@H](Cc1ccccc1)NC(=O)CCCCCNC(=O)CN1CCN(CC(=O)O)CCN(CC(=O)O)CCN(CC(=O)O)CC1)C(C)C)C(=O)N[C@@H](CCC(=O)O)C(=O)N1CCC[C@H]1C(=O)N[C@@H](CC(=O)O)C(=O)N[C@H](C(=O)N[C@@H](CO)C(=O)N[C@@H](CCC(N)=O)C(=O)N[C@H](C(=O)N[C@@H](CCC(N)=O)C(=O)N[C@@H](CC(=O)O)C(=O)N1CCC[C@H]1C(=O)N[C@@H](CC(N)=O)C(=O)N[C@@H](CC(=O)O)C(=O)N[C@@H](CCC(N)=O)C(=O)N[C@@H](Cc1ccc(O)cc1)C(=O)N[C@@H](CCC(=O)O)C(=O)N1CCC[C@H]1C(=O)N[C@@H](Cc1ccccc1)C(=O)O)C(C)C)C(C)C [copper-64 labelled],,"C57BL/6 male mouse, tumour-naive, large intestine",2 h,tissue uptake,10.7 ± 3.1 %ID/g
CCCCC[C@H]1C(=O)N[C@H](C)C(=O)N(C)[C@@H](CCCCC)C(=O)N[C@H](C)C(=O)N(C)[C@@H](CCCCC)C(=O)N[C@H](C)C(=O)N(C)[C@@H](CCCCC)C(=O)N[C@H](C)C(=O)N1C,"PAMPA, HPLC-UV",,"500 µM, pH 7.4",log Papp,-6.48 ± 0.08
O=C(O)CC[C@H](NC(=O)[C@H](CCC(=O)O)NC(=O)[C@H](CCC(=O)O)NC(=O)[C@H](CCC(=O)O)NC(=O)[C@H](CCC(=O)O)NC(=O)CNC(=O)[C@H](CCC(=O)O)NC(=O)CNC(=O)[C@H](CCC(=O)O)NC(=O)[C@@H](Cc1ccccc1)NC(=O)[C@@H](Cc1ccccc1)NC(=O)Cc1ccc2ccccc2c1)C(=O)O,TEM,aqueous solution,"500 µM, pH 9",nanoparticle diameter,14 ± 2 nm
CCCCCCCCCCCCCCCC(=O)N[C@@H](CCC(=O)NCCOCCOCCC(=O)NCCOCCOCCC(=O)NCCCC[C@H](NC(=O)[C@H](CC(=O)O)NC(=O)[C@H](CC(C)C)NC(=O)[C@H](Cc1ccc(O)cc1)NC(=O)[C@H](CCCCN)NC(=O)[C@H](CO)NC(=O)[C@H](Cc1ccc(O)cc1)NC(=O)[C@H](CC(=O)O)NC(=O)[C@H](CO)NC(=O)[C@@H](NC(=O)[C@H](Cc1ccccc1)NC(=O)[C@@H](NC(=O)CNC(=O)[C@H](CCC(N)=O)NC(=O)[C@@H](CO)NC(=O)[C@@H](N)Cc1c[nH]cn1)[C@@H](C)O)[C@@H](C)O)C(=O)N[C@@H](CCCNC(=N)N)C(=O)N[C@@H](CCCNC(=N)N)C(=O)N[C@@H](C)C(=O)N[C@@H](CCC(N)=O)C(=O)N[C@@H](CC(=O)O)C(=O)N[C@@H](Cc1ccccc1)C(=O)N[C@H](C(=O)N[C@@H](CCC(N)=O)C(=O)N[C@@H](Cc1c[nH]c2ccccc12)C(=O)N[C@@H](CC(C)C)C(=O)N[C@@H](CC(C)C)C(=O)N[C@@H](CC(N)=O)C(=O)N[C@H](C(=O)NCC(=O)NCC(=O)N1CCC[C@H]1C(=O)N[C@@H](CO)C(=O)N[C@@H](CO)C(=O)NCC(=O)N[C@@H](C)C(=O)N1CCC[C@H]1C(=O)N1CCC[C@H]1C(=O)N1CCC[C@H]1C(=O)N[C@@H](CO)C(N)=O)[C@@H](C)O)C(C)C)C(=O)O,refers to: CK,"rhesus monkey, female","subcutaneous, 60 µg/kg once daily, 28 days",serum enzyme activity,130 ± 32 U/L
CC(C)C[C@@H](NC(=O)[C@@H](CCCNC(=N)N)NC(=O)[C@@H](Cc1c[nH]cn1)NC(=O)[C@@H](Cc1c[nH]c2ccccc12)NC(=O)[C@@H](Cc1c[nH]cn1)NC(=O)[C@@H](Cc1ccccc1)NC(=O)[C@H](NC(=O)[C@@H](Cc1ccc(O)cc1)NC(=O)CNC(=O)CNC(=O)CCOCCOCCOCCNC(=O)CN1CCN(CC(=O)O)CCN(CC(=O)O)CC1)[C@H](C)O)C(=O)N[C@H](CC(N)=O)C(=O)N1CCC[C@@H]1C(=O)O [gallium-68 labelled],OLINDA/EXM,"adult female human, ULI wall",extrapolated from C57BL/6 mice,organ absorbed dose,0.014 ± 0.000451 mSv/MBq
CC[C@H](C)[C@H](NC(=O)[C@H](CCCNC(=N)N)NC(=O)[C@H](CCCCN)NC(=O)[C@H](Cc1ccc(O)cc1)NC(=O)[C@H](CC(=O)O)NC(=O)[C@H](C)NC(=O)CNC(=O)CCOCCOCCOCCNC(=O)CN1CCN(CC(=O)O)CCN(CC(=O)O)CCN(CC(=O)O)CC1)C(=O)N[C@H](C(=O)N[C@H](C(=O)N[C@@H](CCCCN)C(=O)N[C@H](C(=O)N[C@@H](CC(N)=O)C(N)=O)C(C)C)C(C)C)[C@@H](C)O [copper-64 labelled],ex vivo gamma counting,"C57BL/6J male mice, B16-F10 tumour, brain","intravenous, 1.85 MBq, 20 min",tissue uptake,0.114 ± 0.022 %ID/g
COc1cccc(O)c1C(=O)/C=C/c1ccc2cc(N3CCCC3)ccc2c1,,"C57BL/6J mice, liver","intraperitoneal, 50 mg/kg single, 2 h",tissue concentration,38.5 ng/g
C=CCN1CCC23c4c5ccc(OC(=O)c6ccc(NC(=O)OC(C)(C)C)cc6)c4OC2C(=O)CCC3(O)C1C5 (stereo not drawn),,rat plasma,"1 h, added: loperamide 100 µM",remaining compound,54.3% and 54.8% and 63.4%
COC(=O)[C@@H](NC(=O)c1nn(Cc2ccc(F)cc2)c2cc(OCCCCNC(=N)N)ccc12)C(C)(C)C,tail-flick test,mouse,intraperitoneal,dose producing thermal antinociception,30 mg/kg
O=C1NC2(CC2)COc2ncc(F)cc2[C@H]2COCCN2c2ccn3ncc1c3n2,,"Sprague-Dawley rat, male","oral, 20 mg/kg/day, end of treatment, 4-week repeated-dose toxicity",body weight,424 ± 31.5 g
COCCCCNC(=O)CC(Cc1ccc(F)cc1)NC(=O)C(Cc1ccc(Cl)cc1Cl)NC(=O)C(N)Cc1ccccc1C#N (stereo not drawn),metabolic stability,"CD-1 mouse, liver microsomes",1 µM,microsomal CLint,50 µL/min/mg
CC(C)[C@H](NC(=O)[C@@H](NC(=O)[C@H](CCCNC(=N)N)NC(=O)[C@H](CCCNC(=N)N)NC(=O)[C@H](CCCNC(=N)N)NC(=O)[C@H](CCC(N)=O)NC(=O)[C@H](CCCNC(=N)N)NC(=O)[C@H](CCCNC(=N)N)NC(=O)[C@H](CCCCN)NC(=O)[C@H](CCCCN)NC(=O)[C@H](CCCNC(=N)N)NC(=O)CN)[C@@H](C)O)C(=O)N[C@H](C(=O)N[C@@H](CO)C(=O)N1CCC[C@H]1C(=O)O)[C@@H](C)O,,"ICR mice, female, brain","intranasal, 20 mg/kg daily, 4 weeks",organ weight,0.451 ± 0.067 g
CC(CCC(=O)NCC(=O)O)C1CCC2C3C(O)CC4CC(OC5OC(C(=O)O)C(O)C(O)C5O)CCC4(C)C3CCC12C (stereo not drawn),,"men, C/C genotype, plasma","dose not given, geometric mean",glucuronide to parent ratio,0.482
CC[C@H](C)[C@H](NC(=O)[C@H](CCCN)NC(=O)[C@H](CCCNC(=N)N)NC(=O)[C@@H]1CCCN1C(=O)[C@@H]1CCCN1C(=O)[C@H](CCCNC(=N)N)NC(=O)[C@@H]1CCCN1C(=O)[C@H](CCCNC(=N)N)NC(=O)[C@@H]1CCCN1C(=O)[C@H](CC(C)C)NC(=O)[C@H](Cc1ccc(O)cc1)NC(=O)[C@@H]1CCCN1C(=O)[C@@H]1CCCN1C(=O)[C@H](CCCCN)NC(=O)[C@H](CC(=O)O)NC(=O)[C@@H](N)C(C)C)C(=O)N[C@@H](Cc1ccc(O)cc1)C(=O)N[C@@H](CC(N)=O)C(=O)N[C@@H](CCCN)C(N)=O,competitive ELISA,"mouse CD-1, female, plasma","subcutaneous, 4.34 µmol/kg",AUC(0-inf),5500 ng·h/mL
C[C@H](O)[C@@H](NC(=O)[C@H]1CCCN1C(=O)[C@@H](CCCCN)NC(=O)[C@@H](CO)NC(=O)[C@@H](Cc1ccc(O)cc1)NC(=O)[C@@H](CC(N)=O)NC(=O)CCOCCOCCOCCNC(=O)CN1CCN(CC(=O)O)CCN(CC(=O)O)CCN(CC(=O)O)CC1)C(=O)N[C@H](CC(=O)O)C(=O)N[C@H](CCCNC(=N)N)C(=O)N[C@H](CCC(N)=O)C(=O)N[C@H](Cc1ccc(O)cc1)C(=O)N[C@H](Cc1c[nH]cn1)C(=O)N[C@H](Cc1ccccc1)C(N)=O [gallium-68 labelled],,"BALB/c nude mice U-87 MG tumour, tumor","intravenous, 1.85 MBq, 0.08333 h, radiolabelled",tissue uptake,4.5 ± 0.32 %ID/g
